Published values collected from several papers.
A part holds a random share of what one study measured. Substitutions count along the parent as printed.
UniProt P60604, sequence (whole entry, looked up): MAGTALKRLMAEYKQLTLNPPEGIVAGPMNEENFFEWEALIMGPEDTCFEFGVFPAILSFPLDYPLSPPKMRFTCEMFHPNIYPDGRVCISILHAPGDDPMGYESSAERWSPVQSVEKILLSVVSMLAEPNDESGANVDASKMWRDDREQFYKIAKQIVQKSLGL
UniProt P61088, sequence (whole entry, looked up): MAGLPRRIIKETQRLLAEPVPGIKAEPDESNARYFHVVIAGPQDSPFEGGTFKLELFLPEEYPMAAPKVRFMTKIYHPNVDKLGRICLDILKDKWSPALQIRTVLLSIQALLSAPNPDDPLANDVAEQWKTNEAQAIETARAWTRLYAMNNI
UniProt O14933, sequence (whole entry, looked up): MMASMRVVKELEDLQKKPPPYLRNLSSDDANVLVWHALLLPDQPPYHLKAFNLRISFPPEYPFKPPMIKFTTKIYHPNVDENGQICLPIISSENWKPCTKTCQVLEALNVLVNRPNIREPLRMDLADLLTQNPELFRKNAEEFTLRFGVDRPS
UniProt P62256, sequence (whole entry, looked up): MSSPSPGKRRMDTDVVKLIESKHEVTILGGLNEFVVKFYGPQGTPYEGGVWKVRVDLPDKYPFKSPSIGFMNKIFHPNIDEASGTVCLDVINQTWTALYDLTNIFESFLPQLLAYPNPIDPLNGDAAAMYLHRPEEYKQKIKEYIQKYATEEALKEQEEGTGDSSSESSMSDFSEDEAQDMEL
UniProt Q96LR5, sequence (whole entry, looked up): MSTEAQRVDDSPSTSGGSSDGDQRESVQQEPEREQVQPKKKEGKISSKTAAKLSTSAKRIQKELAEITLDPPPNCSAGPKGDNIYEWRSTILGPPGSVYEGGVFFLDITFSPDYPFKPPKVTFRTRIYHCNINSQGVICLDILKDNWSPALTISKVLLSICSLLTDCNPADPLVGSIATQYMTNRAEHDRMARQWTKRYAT
UniProt P49427, sequence (whole entry, looked up): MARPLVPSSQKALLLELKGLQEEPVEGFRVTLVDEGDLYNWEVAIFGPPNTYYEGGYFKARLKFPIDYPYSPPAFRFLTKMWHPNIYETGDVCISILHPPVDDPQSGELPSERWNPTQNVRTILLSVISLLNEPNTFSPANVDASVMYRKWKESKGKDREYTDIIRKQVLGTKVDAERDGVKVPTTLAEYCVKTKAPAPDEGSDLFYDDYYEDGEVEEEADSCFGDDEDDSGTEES

Sample 1
Target: PABPC1L2, full length, GST fusion (mouse, UniProt A0ABA7IW68)
Method: RNAcompete
Molecule type: RNA
Sample: in vitro
Tested at: 20 nM
Setting: 7-mer, probes averaged, single round
Relative to: mean of 7-mers
Reading: higher = stronger binding
Construct (chain): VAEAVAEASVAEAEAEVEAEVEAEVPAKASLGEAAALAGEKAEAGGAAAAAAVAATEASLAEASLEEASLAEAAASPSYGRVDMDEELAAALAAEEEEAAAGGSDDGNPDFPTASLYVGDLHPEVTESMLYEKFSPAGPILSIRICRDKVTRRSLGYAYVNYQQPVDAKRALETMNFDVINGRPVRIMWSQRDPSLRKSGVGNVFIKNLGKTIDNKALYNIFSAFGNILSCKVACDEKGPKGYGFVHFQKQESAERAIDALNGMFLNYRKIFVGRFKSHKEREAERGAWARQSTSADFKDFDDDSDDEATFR
With `CUCACAC` the 7-mer Z-score was -0.394.
The 7-mer Z-score of `CGGUGAU` is reported as -0.0192.
For `ACCGAUU`, the 7-mer Z-score was -0.153.
`GGUCGUA` gave a 7-mer Z-score of -0.255.
With `GGAACAG` the 7-mer Z-score was 0.285.
The 7-mer Z-score of `AAUCCGU` is reported as -0.166.
For `UACCGGG`, the 7-mer Z-score was -0.0174.
For `GUAGCUG`, the 7-mer Z-score was -0.148.

Sample 2
Target: CREBZF, bZIP domain (human)
Method: DHFR protein complementation
Sample: yeast
Setting: single substitutions, most at no-binding floor
Relative to: wild-type JUN-FOS pair
Reading: higher = stronger binding
Parent: JUN, bZIP domain (human); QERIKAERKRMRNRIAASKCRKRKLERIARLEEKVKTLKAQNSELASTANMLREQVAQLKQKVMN; partner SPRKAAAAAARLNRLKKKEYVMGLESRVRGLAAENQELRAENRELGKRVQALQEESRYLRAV
For `E32F`, the binding fitness was -1.43 natural log.
`S43K` gave a binding fitness of -1.5 natural log.
`R53G` gave a binding fitness of -1.58 natural log.
`V56G` has a binding fitness of -1.49 natural log.
The binding fitness of `K39A` is reported as -1.36 natural log.
`N42V` gave a binding fitness of -1.36 natural log.
For `L31D`, the binding fitness was -1.52 natural log.
For `V56P`, the binding fitness was -1.51 natural log.

Sample 3
Molecule: B1 (TRIM54 RING domain)
Method: yeast two-hybrid
Sample: yeast
Setting: mostly zero background
Relative to: not given
Reading: higher = stronger interaction
B1: TRIM54 RING domain (UniProt Q9BYV2); chain SMDNLEKQLICPICLEMFSKPVVILPCQHNLCRKCANDVFQASNPLWQSRGSTTVSSGGRFRCPSCRHEVVLDRHGV
The “lacZ reporter activity” was 0 (UBE2L6 UBC core domain (UniProt O14933)).
For UBE2E2 UBC core domain (UniProt Q96LR5): “lacZ reporter activity” read 0.
It gave 0 for “lacZ reporter activity” (CDC34 UBC core domain (UniProt P49427)).
It gave 0 for “lacZ reporter activity” (UBE2H UBC core domain (UniProt P62256)).
It gave 0 for “lacZ reporter activity” (UBE2N UBC core domain (UniProt P61088)).
The “lacZ reporter activity” was 0 (UBE2G2 UBC core domain (UniProt P60604)).

Mixed results
Parent: viral docking peptide; KGVKRKLFAEDSS; partner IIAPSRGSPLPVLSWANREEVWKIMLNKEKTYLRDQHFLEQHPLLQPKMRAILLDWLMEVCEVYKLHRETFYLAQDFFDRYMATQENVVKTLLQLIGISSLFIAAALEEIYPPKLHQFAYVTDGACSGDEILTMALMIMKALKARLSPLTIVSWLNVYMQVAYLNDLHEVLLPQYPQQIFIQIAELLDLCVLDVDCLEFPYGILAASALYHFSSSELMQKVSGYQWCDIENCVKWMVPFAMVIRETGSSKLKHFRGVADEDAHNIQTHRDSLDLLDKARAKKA
For `G2H`, “normalised enrichment score” read 7.27 (CCNE1, cyclin fold, Cln2 fusion (human); yeast growth competition, sequencing; yeast; strong parent motif; relative to: not given, higher = stronger binding).

Some of these lines once more (sample 2):
For `E32F`, the binding fitness was -1.43 natural log.
`S43K` gave a binding fitness of -1.5 natural log.
`R53G` gave a binding fitness of -1.58 natural log.
